Measured values of several laboratories.
Each line is one published result; not all experiments were run side by side. ± marks the error that the study gave.

SMILES	tested on	test	test system	setting	scale	measurement	value
COc1ccccc1-c1nccc(COc2ccccc2C[C@@H](Oc2ncnc3oc(-c4ccc(F)cc4)c(-c4ccc(OCCN5CCN(C)CC5)c(Cl)c4C)c23)C(=O)O)n1	NCI-H929	cell viability, MTT	–	48 h, 10% CFS	–	IC50	0.024 µM
COc1cc(C(=O)c2sc3ccccc3c2NC(C)=O)cc(OC)c1OC	L1210	cell growth or viability	–	24 h	–	IC50	1.89 µM
Brc1ccc2[nH]c(-c3ccccc3)cc2c1	HEK293 NF-κB luciferase reporter	reporter gene, refers to: NF-κB	–	6 h, with: TNFα	–	IC50	2.4 ± 0.3 µM
COc1cc(C(=O)c2oc3ccccc3c2NC(=O)CCl)cc(OC)c1OC	L1210	cell growth or viability	–	24 h	–	IC50	51.8 µM
CC1CCN(Cc2ccc(/C=C/C(=O)c3ccc(Cl)cc3)cc2O)CC1	WRL68	cell growth or viability, MTT	–	72 h	–	IC50	14.8 µM
CCCCCCCC/C=C\CCCCCCCC[N+](C)(C)CCCS(=O)(=O)[O-]	SK-OV-3 eGFP-transfected	cell viability, MTT	–	24 h	–	IC50	62 µM
CC(C)C[C@H](NC(=O)[C@H](Cc1ccccc1)NC(=O)c1cnccn1)B(O)O	RPMI-8226	cell viability	–	48 h, with: EGCG 3800 nM	–	IC50	0.015 µM
CC/C(=C(\c1ccc(O)cc1)c1ccc(OCCN(C)C)cc1)c1ccccc1	cultured mouse DRG neurons	sodium current, whole-cell voltage clamp	–	5 min, -10 mV trains at 0.2 Hz	–	IC50	3.3 µM
CS(=O)(=O)CCNCc1ccc(-c2ccc3ncnc(Nc4ccc(OCc5cccc(F)c5)c(Cl)c4)c3c2)o1	SK-OV-3 (HER2-positive)	cell viability, MTT	–	72 h	–	IC50	7.98 µM
O=c1cc(-c2ccccc2)oc2cc(O)cc(O)c12	MOLT-3	cell growth or viability, ATP luminescence	–	24 h	–	IC50	217 µM
O=c1[nH]nc(O)c2c(-c3cccc(Br)c3)c3n(c12)CCn1cccc1-3	PANC-1	cell growth or viability, MTT	–	48 h	–	IC50	58.2 µM
COc1ccc(C[C@H]2COC(=O)[C@@H]2Cc2ccc(OCc3cn(CC(=O)Nc4ccccc4N)nn3)c(OC)c2)cc1OC	CCRF-CEM	cell growth or viability, CCK-8	–	48 h	–	IC50	> 5 µM
CCCOc1ccc(/C=C(\C(=O)c2cc(C)[nH]c(=O)c2C(=O)N2CCCCC2)c2ccc(OCCC)cc2)cc1	human Fibroblast	cell growth or viability, MTT	–	72 h	–	IC50	> 10 µM
Cc1nc(NC(=O)N2CCC[C@H]2C(N)=O)sc1-c1ccnc(C(C)(C)C(F)(F)F)c1	SK-OV-3	Akt phosphorylation, inhibitor, in-cell western, refers to: Akt pSer473	–	1 h	–	IC50	0.162 µM
COc1ccc2c(C)cc(=O)oc2c1	NIH3T3	hyaluronan secretion	–	72 h	–	IC50	223 ± 140 µM
C[C@]12C=CC(=O)C=C1CC[C@@H]1[C@@H]2[C@@H](O)C[C@@]2(C)[C@H]1CC[C@]2(O)C(=O)CO	C2C12 myoblasts	NF-κB reporter gene, inhibitor	–	24 h pretreatment, with: TNF-α 10 ng/mL, 24 h	–	IC50	0.417 µM
O[C@H]1[C@H](O)C=CC(Br)[C@@H]1O (stereo partly shown)	LAPC4	AR transcriptional activity, antagonist, PSA promoter luciferase	–	24 h	–	IC50	1 µM
COc1ccc(C[C]2([Ti+2][C]3(Cc4ccc(OC)cc4)C=CC=C3)C=CC=C2)cc1.[Cl-].[Cl-]	IMR-90	cell growth or viability, resazurin	–	72 h	–	IC50	> 100 µM
COc1ccc(-c2c3n(c4c(=O)[nH]nc(O)c24)CCn2cccc2-3)cc1	PANC-1	cell growth or viability, MTT	–	48 h	–	IC50	60 µM
Cc1cc(C(=O)/C(=C\c2ccc(Br)cc2)c2ccc(Br)cc2)c(C(=O)N2CCCCC2)c(=O)[nH]1	human primary dermal fibroblasts	cell proliferation, MTT	–	72 h	–	IC50	> 10 µM
Nc1ccc(/C=C/C(=O)NCc2cc3cc(-c4ccc(C(=O)N5CCC(F)(F)CC5)cc4)cc(-c4ccc(F)cc4)c3o2)cn1	U2OS	cell growth or viability, CCK-8	–	72 h	–	IC50	0.8 µM

SMILES	tested on	test	test system	setting	scale	measurement	value
COc1ccc2c(NC(=O)CI)c(C(=O)c3cc(OC)c(OC)c(OC)c3)oc2c1	L1210	cell growth or viability	–	24 h	–	IC50	0.57 µM
Cc1c2c(cc3c(-c4ccccc4)cc(=O)oc13)C(=O)CC1(CCCCC1)O2	NIH3T3	hyaluronan secretion	–	72 h	–	IC50	250 ± 164 µM
COc1cc(C(=O)c2sc3c(C)cccc3c2N)cc(OC)c1OC	L1210	cell growth or viability	–	–	–	IC50	0.062 µM
C[C@H]1[C@H](C)CC[C@]2(C(=O)O)CC[C@]3(C)C(=CC[C@@H]4[C@@]5(C)CC[C@H](O)C(C)(C)[C@@H]5CC[C@]43C)[C@H]12	MDA-MB-435	cell growth or viability	–	72 h	–	IC50	> 10 µM
O=c1[nH]nc(O)c2c(-c3ccc([N+](=O)[O-])cc3)c3n(c12)CCn1cccc1-3	PANC-1	cell growth or viability, MTT	–	48 h	–	IC50	46.4 µM
Cn1nnc2c(C(N)=O)ncn2c1=O	GM12878	cell proliferation, MTS	–	24 h, with: HNL 10 µM	–	IC50	< 1000 µM
COc1cc(C(=O)c2oc3c(OC)cccc3c2NC(C)=O)cc(OC)c1OC	L1210	cell growth or viability	–	24 h	–	IC50	52.7 µM
COc1ccc2cc3[n+](cc2c1OCCc1cn(Cc2cc(Cl)ccc2Cl)nn1)CCc1cc2c(cc1-3)OCO2	HUVEC	cell growth or viability, MTT	–	–	–	IC50	7.88 µM
CCCS(=O)(=O)Nc1ccc(F)c(C(=O)c2c[nH]c3ncc(Cl)cc23)c1F	UACC-62	cell growth, IncuCyte confluence	–	–	–	IC50	4.3 µM
COC(=O)c1c(-c2ccc(Br)cc2)c2n(c1C(=O)OC)CCn1cccc1-2	PANC-1	cell growth or viability, MTT	–	48 h	–	IC50	79.7 µM
O=C(Nc1ccc(Cl)c([N+](=O)[O-])c1)Nc1nc2ccccc2s1	LN-229	cell growth or viability	–	5 days	–	IC50	2.3 µM
COC(=O)c1c(-c2ccc(Cl)cc2)c2n(c1C(=O)OC)CCn1cccc1-2	PANC-1	cell growth or viability, MTT	–	48 h	–	IC50	73.9 µM
CC1CCN(Cc2cc(/C=C/C(=O)c3ccc(Cl)cc3)ccc2O)CC1	WRL68	cell growth or viability, MTT	–	72 h	–	IC50	80.7 µM
CCn1c(C)c(C(=O)O)c(-c2cccc(N3CCN(c4ccc(NS(=O)(=O)c5ccc(N[C@H](CCN(C)C)CSc6ccccc6)c([N+](=O)[O-])c5)cc4)CC3)c2)c1-c1ccc(Cl)cc1	NCI-H146	cell growth or viability	–	96 h	–	IC50	0.0081 µM
C=CC(C)(C)c1cc(-c2oc3cc(O)ccc3c2Cc2cc(-c3cc4cc(C(C)(C)C=C)c(O)cc4oc3=O)c(O)cc2O)c(O)cc1O	Hepa1c1c7	cell growth	–	–	–	IC50	10.8 µM
CC(C)[C@H](NC(=O)[C@@H]1CCCN1C(=O)[C@H](CCCNC(=N)N)NC(=O)[C@H](CS)NC(=O)[C@H](Cc1c[nH]c2ccccc12)NC(=O)[C@H](CCCNC(=N)N)NC(=O)[C@@H](Cc1ccccc1)NC(=O)[C@H](Cc1c[nH]cn1)NC(=O)[C@H](CCC(=O)O)NC(=O)[C@H](CS)NC(=O)[C@H](CS)NC(=O)[C@H](CCCCN)NC(=O)[C@@H]1CC(=O)N[C@@H](CCCNC(=N)N)C(=O)N[C@@H](C)C(=O)N[C@@H](CC(=O)O)C(=O)N[C@H](Cc2ccc(O)cc2)C(=O)N1)C(N)=O [technetium-99m labelled]	–	–	C57 mice, brain	intravenous, 0.037 MBq, 24 h	–	tissue uptake	0.02 ± 0.01 %ID/g
CC1(C)C=Cc2cc3ccc(=O)oc3cc2O1	LAPC4	AR transcriptional activity, antagonist, PSA promoter luciferase	–	24 h	–	IC50	5 µM
C=CCc1ccc(O)c(-c2ccc(O)c(CC=C)c2)c1	PANC-1	cell proliferation, MTS	–	24 h, with: 10 µM BLM	–	IC50	3.16 µM
COc1cc(/C=C/C(=O)CC(=O)/C=C/c2ccc(O)c(OC)c2)ccc1O	MGC-803	cell growth or viability, MTT	–	72 h	–	IC50	21.2 µM
CCn1[c](=[Au-2]([Cl])([Cl])[Cl])n(CC)c2ccccc21	RC-124 kidney epithelial	cell proliferation, crystal violet staining	–	96 h	–	IC50	6.3 ± 2 µM
Cc1cc(C2CCCCC2)n(O)c(=O)c1	NIH3T3	resazurin	–	125 cells per well	–	IC50	3.23 ± 0.485 µM

SMILES	tested on	test	test system	setting	scale	measurement	value
O=C1c2c(O)ccc(O)c2C(=O)c2c(NCCNCCO)ccc(NCCNCCO)c21	HCT-15/ADM2-2	cell growth, XTT	–	72 h	–	IC50	0.272 µg/mL
Cc1ccc2cc(-c3ccccc3)[nH]c2c1	HEK293 NF-κB luciferase reporter	reporter gene, refers to: NF-κB	–	6 h, with: TNFα	–	IC50	0.94 ± 0.4 µM
C=CC(C)(O)Cc1cc2cc(-c3ccc(O)cc3O)c(=O)oc2cc1O (stereo not shown)	Hepa1c1c7	cell growth	–	–	–	IC50	> 100 µM
C=CCc1ccc(OCc2nn(CN3CCCC3)c(=S)o2)c(OC)c1	SK-OV-3	cell growth or viability, MTT	–	72 h	–	IC50	16.9 µM
CC(=O)OC[C@H]1O[C@@H]([S-])[C@H](OC(C)=O)[C@@H](OC(C)=O)[C@@H]1OC(C)=O.CCP(CC)CC.[Au+]	CAKI-1	cytotoxicity, XTT	–	–	–	IC50	3.08 ± 0.13 µM
COc1cc(O)c(CC=C(C)C)c(O)c1C(=O)/C=C/c1ccc(O)cc1	LAPC4	AR transcriptional activity, antagonist, PSA promoter luciferase	–	24 h	–	IC50	0.276 µM
Nc1ncnc2c1ncn2-c1ccc(/C=N/NC(=O)c2ccccc2O)cc1	PANC-1	cell growth or viability	–	72 h	–	IC50	> 10 µM
Cc1ccc(NC(=O)c2ccc(CN3CCN(C)CC3)cc2)cc1Nc1nccc(-c2cncc(-c3oncc3C)c2)n1	–	–	mild-to-moderate Parkinson's disease patients	oral, 50 mg once daily, pre-dose baseline, on anti-Parkinson medication	direction not given	PDQ-39 score	16.4 ± 10.1
C[C@@H](Cn1ccc(-c2ccc(C#N)c(Cl)c2)n1)NC(=O)c1cc([C@@H](C)O)[nH]n1	LAPC4	cell growth or viability, ATP luminescence	–	–	–	IC50	0.44 µM
COc1ccc(C[C@H]2COC(=O)[C@@H]2Cc2ccc(OCCCCCC(=O)NO)c(OC)c2)cc1OC	CCRF-CEM	cell growth or viability, CCK-8	–	48 h	–	IC50	1.57 µM
O=c1cc(-c2ccc(O)cc2)oc2cc(O)cc(O)c12	CCRF-CEM	cell growth or viability, ATP luminescence	–	24 h	–	IC50	195 µM
COC(=O)c1c(-c2ccc(Cl)cc2Cl)c2n(c1C(=O)OC)CCn1cccc1-2	PANC-1	cell growth or viability, MTT	–	48 h	–	IC50	69.6 µM
CNC(=O)c1cc(Oc2ccc(NC(=O)Nc3ccc(Cl)c(C(F)(F)F)c3)cc2)ccn1	human Fibroblast	cell growth or viability, SRB	–	48 h	–	IC50	15.1 µM
COc1ccccc1-c1nccc(COc2ccccc2C[C@@H](Oc2cccc3sc(-c4ccc(F)cc4)c(-c4ccc(OCCN5CCN(C)CC5)c(Cl)c4C)c23)C(=O)O)n1	NCI-H929	cell viability, MTT	–	48 h, 10% CFS	–	IC50	0.025 µM
C=C(Br)C(=O)Nc1ccc(/C=C/C(=O)Nc2cc(OC)c(OC)c(OC)c2)cc1	human PBMC	cell growth or viability, MTT	–	72 h	–	IC50	3.5 to 4 µM
CC(=O)Nc1cccc(C(=O)Nc2ccc(Nc3nccc(-c4cccnc4)n3)c(C)c2)c1	SH-SY5Y MKK7-ACT	c-Jun phosphorylation, inhibitor, HTRF, refers to: phospho-c-Jun Ser63	–	6 h, with: doxycycline	–	IC50	6.79 ± 0.256 µM
COC(=O)c1c(-c2ccc(F)cc2)c2n(c1C(=O)OC)CCn1cccc1-2	PANC-1	cell growth or viability, MTT	–	48 h	–	IC50	75.3 µM
COc1cccc2c1C(=O)c1c(O)c3c(c(O)c1C2=O)C[C@@](O)(C(=O)CO)C[C@@H]3O[C@H]1C[C@H](N)[C@H](O)[C@H](C)O1	HCT-15/ADM2-2	cell growth, XTT	–	72 h	–	IC50	1.96 µg/mL
Cc1ccc(C(C)C)cc1.Cc1ccc(C(C)C)cc1.[Cl][Ru][Cl].[Cl][Ru][Cl]	NALM-6	cell growth or viability, MTT	–	48 h	–	IC50	374 µM
